Measurements of several laboratories.
Numbered parts are unrelated; each lists some results of a single study. Several values in a cell are separate wells, animals, samples, runs or records.
Chain of UniProt P42679 (whole entry, looked up): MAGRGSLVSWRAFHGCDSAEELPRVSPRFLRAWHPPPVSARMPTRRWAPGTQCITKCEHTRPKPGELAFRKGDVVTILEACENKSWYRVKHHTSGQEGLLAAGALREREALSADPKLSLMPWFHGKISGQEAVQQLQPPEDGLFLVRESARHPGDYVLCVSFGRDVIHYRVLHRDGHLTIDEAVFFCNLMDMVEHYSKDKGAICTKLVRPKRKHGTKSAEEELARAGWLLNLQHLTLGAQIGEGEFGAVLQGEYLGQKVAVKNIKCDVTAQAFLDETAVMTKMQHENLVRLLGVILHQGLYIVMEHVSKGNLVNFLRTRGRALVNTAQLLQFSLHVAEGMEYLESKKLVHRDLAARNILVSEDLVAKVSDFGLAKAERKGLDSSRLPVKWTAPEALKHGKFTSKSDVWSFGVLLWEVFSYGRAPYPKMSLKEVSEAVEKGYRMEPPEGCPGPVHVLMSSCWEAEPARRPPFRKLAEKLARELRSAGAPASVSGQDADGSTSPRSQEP
Chain of UniProt Q8NFD2 (whole entry, looked up): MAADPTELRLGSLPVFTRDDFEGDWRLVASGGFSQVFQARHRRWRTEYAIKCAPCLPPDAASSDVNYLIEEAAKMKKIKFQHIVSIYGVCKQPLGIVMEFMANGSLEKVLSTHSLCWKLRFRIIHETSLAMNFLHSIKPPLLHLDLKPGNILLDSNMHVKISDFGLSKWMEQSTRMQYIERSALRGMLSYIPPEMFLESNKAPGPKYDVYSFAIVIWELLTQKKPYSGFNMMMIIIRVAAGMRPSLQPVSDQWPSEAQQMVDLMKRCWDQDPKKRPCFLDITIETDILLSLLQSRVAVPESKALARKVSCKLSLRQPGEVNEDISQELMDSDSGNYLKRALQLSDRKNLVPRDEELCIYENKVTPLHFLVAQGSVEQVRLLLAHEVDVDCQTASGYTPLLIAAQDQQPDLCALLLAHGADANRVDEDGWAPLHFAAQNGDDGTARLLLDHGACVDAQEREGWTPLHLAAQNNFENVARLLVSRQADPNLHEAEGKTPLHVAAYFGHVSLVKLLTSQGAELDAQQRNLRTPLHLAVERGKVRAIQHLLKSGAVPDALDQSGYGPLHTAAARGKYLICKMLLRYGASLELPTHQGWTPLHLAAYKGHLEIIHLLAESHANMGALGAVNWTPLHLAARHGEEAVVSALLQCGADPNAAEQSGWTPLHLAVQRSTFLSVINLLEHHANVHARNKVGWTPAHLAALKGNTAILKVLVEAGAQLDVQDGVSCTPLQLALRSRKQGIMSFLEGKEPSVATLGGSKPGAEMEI
Chain of UniProt P78368 (whole entry, looked up): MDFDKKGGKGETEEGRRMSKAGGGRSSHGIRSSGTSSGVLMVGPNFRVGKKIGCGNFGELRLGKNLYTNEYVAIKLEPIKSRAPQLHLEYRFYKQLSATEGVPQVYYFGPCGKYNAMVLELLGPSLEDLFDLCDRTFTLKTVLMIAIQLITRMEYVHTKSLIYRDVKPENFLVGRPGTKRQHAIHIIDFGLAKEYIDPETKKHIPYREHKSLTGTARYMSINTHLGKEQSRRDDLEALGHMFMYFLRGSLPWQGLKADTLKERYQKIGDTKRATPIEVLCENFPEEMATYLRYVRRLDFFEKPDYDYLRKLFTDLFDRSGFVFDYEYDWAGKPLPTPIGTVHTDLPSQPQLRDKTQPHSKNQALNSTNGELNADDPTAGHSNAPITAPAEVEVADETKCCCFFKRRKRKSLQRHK
Chain of UniProt Q6P2M8 (whole entry, looked up): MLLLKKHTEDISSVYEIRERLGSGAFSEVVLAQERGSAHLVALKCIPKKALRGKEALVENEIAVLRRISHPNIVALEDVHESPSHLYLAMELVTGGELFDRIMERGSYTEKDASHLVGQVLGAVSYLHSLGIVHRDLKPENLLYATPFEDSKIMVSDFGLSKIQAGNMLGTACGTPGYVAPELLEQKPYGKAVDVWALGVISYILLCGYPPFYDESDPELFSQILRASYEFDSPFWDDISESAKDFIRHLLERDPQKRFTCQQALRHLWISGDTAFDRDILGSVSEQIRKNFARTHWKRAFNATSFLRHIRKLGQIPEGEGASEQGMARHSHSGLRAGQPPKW

Block 1 — effect on: enzyme activity; action: inhibitor; concentration: 10 µM
Target: Calcium/calmodulin-dependent protein kinase type II subunit alpha (CAMK2A, Homo sapiens, UniProt Q9UQM7)
Chain of UniProt Q9UQM7 (whole entry, looked up): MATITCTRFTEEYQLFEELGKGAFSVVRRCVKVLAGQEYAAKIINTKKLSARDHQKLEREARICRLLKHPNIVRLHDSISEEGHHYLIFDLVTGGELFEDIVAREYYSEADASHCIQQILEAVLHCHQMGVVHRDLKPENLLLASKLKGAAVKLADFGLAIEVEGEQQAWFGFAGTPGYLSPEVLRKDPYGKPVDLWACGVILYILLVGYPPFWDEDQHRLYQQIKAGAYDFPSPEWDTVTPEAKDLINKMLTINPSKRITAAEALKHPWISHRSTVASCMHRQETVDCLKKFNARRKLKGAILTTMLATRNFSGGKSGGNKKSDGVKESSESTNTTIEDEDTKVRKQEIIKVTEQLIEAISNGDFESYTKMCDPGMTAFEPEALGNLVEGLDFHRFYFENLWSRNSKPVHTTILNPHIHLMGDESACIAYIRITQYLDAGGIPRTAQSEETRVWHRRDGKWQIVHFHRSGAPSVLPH
`C=CC(=O)N1CCC(c2ccc(C(N)=O)c(-c3ccc(Oc4ccccc4)cc3)n2)CC1` gave an inhibition of 4%.
With `Cc1cc(-c2ccc(/N=N/c3ccc4c(S(=O)(=O)O)cc(S(=O)(=O)O)c(N)c4c3O)c(C)c2)ccc1/N=N/c1ccc2c(S(=O)(=O)O)cc(S(=O)(=O)O)c(N)c2c1O` the inhibition was 89%.
For `C[S+]([O-])CCCC/C(=N\OS(=O)(=O)O)S[C@@H]1O[C@H](CO)[C@@H](O)[C@H](O)[C@H]1O` (some centres unmarked), the inhibition was 5%.
For `CC(C)=CCCC(C)CC=O` (centres unmarked), the inhibition was -9%.
With `CN[C@H]1C(=O)N[C@@H]2Cc3ccc(cc3)Oc3cc4cc(c3O[C@@H]3O[C@H](C(=O)O)[C@@H](O)[C@H](O)[C@H]3NC(=O)CCCCCCCCC(C)C)Oc3ccc(cc3Cl)[C@@H](O)[C@@H]3NC(=O)[C@H](NC(=O)[C@@H]4NC(=O)[C@@H](NC2=O)c2cc(cc(O)c2Cl)Oc2cc1ccc2O)c1ccc(O)c(c1)-c1c(O[C@H]2O[C@H](CO)[C@@H](O)[C@H](O)[C@@H]2O)cc(O)cc1[C@@H](C(=O)NCCCN(C)C)NC3=O` the inhibition was 0%.
The inhibition of `COc1c(O)c(=O)n2c3ccccc3c3ccnc1c32` is reported as 9%.
For `CCCOc1ccc(S(=O)(=O)N2CCN(CCO)CC2)cc1-c1nc2c(CCC)cn(CC)c2c(=O)[nH]1`, the inhibition was -7%.
For `C[C@H]1O[C@@H](n2cnc3c(N)ncnc32)[C@H](O)[C@@H]1O`, the inhibition was -21%.

Block 2 — concentration: 50 µM
Target: Bromodomain-containing protein 4, BD1 (BRD4, Homo sapiens, UniProt O60885)
With `CC[C@H](CO)Nc1nc(NCc2ccccc2)c2ncn(C(C)C)c2n1` the inhibition was 13.6%.
For `COc1ccc(Cl)c(Nc2nc3ccccc3nc2NS(=O)(=O)c2cccc(NC(=O)C(C)(C)N)c2)c1`, the inhibition was -25%.
For `COc1cc(N2CCC(N3CCN(C)CC3)CC2)ccc1Nc1ncnc(Nc2ccccc2S(=O)(=O)C(C)C)n1`, the inhibition was 49.1%.
`CO[C@@H]1[C@H](N(C)C(=O)c2ccccc2)C[C@H]2O[C@]1(C)n1c3ccccc3c3c4c(c5c6ccccc6n2c5c31)C(=O)NC4` gave an inhibition of 5.15%.
With `Cn1c(=O)n(-c2ccc(C(C)(C)C#N)cc2)c2c3cc(-c4cnc5ccccc5c4)ccc3ncc21` the inhibition was -9.1%.
For `COc1cc2nccc(Oc3ccc(NC(=O)Nc4cc(C)on4)c(Cl)c3)c2cc1OC`, the inhibition was 32.6%.
With `Cc1ccc(Nc2nccc(N(C)c3ccc4c(C)n(C)nc4c3)n2)cc1S(N)(=O)=O` the inhibition was 24.9%.
With `CC1(C)CNc2cc(NC(=O)c3cccnc3NCc3ccncc3)ccc21` the inhibition was 52.8%.

Block 3 — technique: competition with immobilised ligand; concentration: 1 µM
Structure (SMILES): Cc1cc(-n2nc(Cc3cc(F)cc(C(F)(F)F)c3)nc2C)ccc1C(N)=O
It gave 87% for remaining binding (PIK3CA (Homo sapiens, UniProt P42336, H1047L); cell-free assay).
It gave 81% for remaining binding (STK17B (Homo sapiens, UniProt O94768); cell-free assay).
For MAPK6 (Homo sapiens, UniProt Q16659); cell-free assay: remaining binding read 100%.
MAP4K3 (Homo sapiens, UniProt Q8IVH8); cell-free assay — remaining binding: 69%.
The remaining binding was 85% (PIK3CB (Homo sapiens, UniProt P42338); cell-free assay).
The remaining binding was 49% (STK38L (Homo sapiens, UniProt Q9Y2H1); binding).
It gave 100% for remaining binding (LATS1 (Homo sapiens, UniProt O95835); cell-free assay).
It gave 100% for remaining binding (PI4KB (Homo sapiens, UniProt Q9UBF8); cell-free assay).
It gave 100% for remaining binding (MAP3K5 (Homo sapiens, UniProt Q99683); cell-free assay).
TYRO3 (Homo sapiens, UniProt Q06418); cell-free assay — remaining binding: 100%.
For LIM domain kinase 1 (LIMK1, Homo sapiens, UniProt P53667); cell-free assay: remaining binding read 100%.
For MAPK4 (Homo sapiens, UniProt P31152); cell-free assay: remaining binding read 100%.
ANKK1 (Homo sapiens, UniProt Q8NFD2); cell-free assay — remaining binding: 100%.
It gave 79% for remaining binding (CSNK1G2 (Homo sapiens, UniProt P78368); cell-free assay).
For EGFR (Homo sapiens, UniProt P00533, G719C); cell-free assay: remaining binding read 100%.
It gave 100% for remaining binding (MATK (Homo sapiens, UniProt P42679); cell-free assay).
For PTK2 (Homo sapiens, UniProt Q05397); cell-free assay: remaining binding read 100%.
The remaining binding was 100% (STK35 (Homo sapiens, UniProt Q8TDR2); cell-free assay).
The remaining binding was 100% (PNCK (Homo sapiens, UniProt Q6P2M8); cell-free assay).
It gave 100% for remaining binding (PLK3 (Homo sapiens, UniProt Q9H4B4); cell-free assay).
The remaining binding was 97% (FLT4 (Homo sapiens, UniProt P35916); cell-free assay).
For ALK (Homo sapiens, UniProt Q9UM73); cell-free assay: remaining binding read 100%.

Block 4 — effect on: enzyme activity; action: inhibitor; concentration: 77 µM; reference: untreated
Target: DNA polymerase theta, ATPase domain (POLQ, Homo sapiens, UniProt O75417)
Chain of UniProt O75417 (whole entry, unmodified, looked up): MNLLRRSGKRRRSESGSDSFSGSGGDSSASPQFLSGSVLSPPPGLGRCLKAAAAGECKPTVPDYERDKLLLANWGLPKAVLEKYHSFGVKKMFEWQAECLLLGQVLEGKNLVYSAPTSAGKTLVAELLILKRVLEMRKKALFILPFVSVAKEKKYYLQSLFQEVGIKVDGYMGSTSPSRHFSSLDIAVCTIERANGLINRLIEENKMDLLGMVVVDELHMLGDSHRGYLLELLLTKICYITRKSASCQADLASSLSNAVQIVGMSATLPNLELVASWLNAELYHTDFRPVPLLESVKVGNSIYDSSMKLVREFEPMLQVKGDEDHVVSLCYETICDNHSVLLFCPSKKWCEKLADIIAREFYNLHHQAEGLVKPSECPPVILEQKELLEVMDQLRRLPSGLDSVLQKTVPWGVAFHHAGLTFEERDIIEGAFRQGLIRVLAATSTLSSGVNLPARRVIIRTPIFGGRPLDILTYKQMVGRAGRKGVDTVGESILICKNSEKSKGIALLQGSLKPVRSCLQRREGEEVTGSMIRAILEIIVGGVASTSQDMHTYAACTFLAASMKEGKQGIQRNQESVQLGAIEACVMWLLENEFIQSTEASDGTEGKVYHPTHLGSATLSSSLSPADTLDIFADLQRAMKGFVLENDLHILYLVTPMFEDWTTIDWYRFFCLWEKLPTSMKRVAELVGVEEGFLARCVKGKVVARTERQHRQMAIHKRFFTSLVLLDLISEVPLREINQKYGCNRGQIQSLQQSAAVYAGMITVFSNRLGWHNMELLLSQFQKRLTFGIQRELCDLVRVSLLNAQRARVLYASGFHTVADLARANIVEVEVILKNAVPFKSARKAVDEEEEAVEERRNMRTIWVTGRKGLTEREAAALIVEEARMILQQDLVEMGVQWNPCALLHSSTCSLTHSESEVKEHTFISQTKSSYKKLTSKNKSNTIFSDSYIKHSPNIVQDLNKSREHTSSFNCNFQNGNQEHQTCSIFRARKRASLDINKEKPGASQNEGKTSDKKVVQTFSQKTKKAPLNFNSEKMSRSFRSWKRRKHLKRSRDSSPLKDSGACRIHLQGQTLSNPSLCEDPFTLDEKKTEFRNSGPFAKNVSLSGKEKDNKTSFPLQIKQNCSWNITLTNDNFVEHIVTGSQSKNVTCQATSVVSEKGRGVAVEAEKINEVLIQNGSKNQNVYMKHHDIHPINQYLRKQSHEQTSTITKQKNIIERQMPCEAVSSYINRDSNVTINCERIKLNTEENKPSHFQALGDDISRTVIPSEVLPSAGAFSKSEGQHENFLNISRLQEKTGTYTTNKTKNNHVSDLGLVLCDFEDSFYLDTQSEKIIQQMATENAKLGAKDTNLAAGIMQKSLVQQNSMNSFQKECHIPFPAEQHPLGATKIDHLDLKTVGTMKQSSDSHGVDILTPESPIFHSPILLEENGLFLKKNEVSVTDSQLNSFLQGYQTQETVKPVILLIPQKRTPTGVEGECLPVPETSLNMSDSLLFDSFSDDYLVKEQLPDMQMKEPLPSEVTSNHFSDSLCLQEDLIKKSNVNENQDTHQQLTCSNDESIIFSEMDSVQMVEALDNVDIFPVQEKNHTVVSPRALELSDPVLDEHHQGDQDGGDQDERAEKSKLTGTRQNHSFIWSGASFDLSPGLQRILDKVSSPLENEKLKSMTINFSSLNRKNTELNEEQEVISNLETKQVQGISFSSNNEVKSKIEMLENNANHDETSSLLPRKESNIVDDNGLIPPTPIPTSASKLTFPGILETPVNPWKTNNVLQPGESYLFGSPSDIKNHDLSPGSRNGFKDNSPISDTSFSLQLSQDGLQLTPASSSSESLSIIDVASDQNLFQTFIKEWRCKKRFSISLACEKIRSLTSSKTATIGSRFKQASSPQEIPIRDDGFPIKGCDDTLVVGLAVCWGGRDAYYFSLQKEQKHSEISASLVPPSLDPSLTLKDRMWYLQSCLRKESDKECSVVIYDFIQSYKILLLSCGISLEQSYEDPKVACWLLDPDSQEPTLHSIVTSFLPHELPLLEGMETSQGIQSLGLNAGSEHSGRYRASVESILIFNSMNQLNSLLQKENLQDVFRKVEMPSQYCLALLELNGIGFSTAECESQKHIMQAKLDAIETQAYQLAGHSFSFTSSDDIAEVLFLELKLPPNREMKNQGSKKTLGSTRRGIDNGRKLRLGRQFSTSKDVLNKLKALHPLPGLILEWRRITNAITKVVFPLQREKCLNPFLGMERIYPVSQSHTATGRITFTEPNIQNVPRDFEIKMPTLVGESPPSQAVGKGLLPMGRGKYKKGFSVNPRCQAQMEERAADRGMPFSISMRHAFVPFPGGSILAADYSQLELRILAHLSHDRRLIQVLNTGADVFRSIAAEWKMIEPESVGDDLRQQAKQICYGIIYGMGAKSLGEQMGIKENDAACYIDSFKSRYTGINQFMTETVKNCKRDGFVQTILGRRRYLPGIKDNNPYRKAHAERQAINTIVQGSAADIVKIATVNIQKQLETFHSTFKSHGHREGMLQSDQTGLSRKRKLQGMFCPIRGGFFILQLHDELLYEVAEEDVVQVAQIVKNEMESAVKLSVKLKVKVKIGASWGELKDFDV
`N=C(N)NS(=O)(=O)c1ccc(N)cc1` gave a remaining activity of 97.9% and 95.4%.
`NC[C@@H]1O[C@H](c2ccccc2)Cc2c1ccc(O)c2O` has a remaining activity of 98.8%.
`C=CCc1cc(OC)c(O)c(C(=O)NCCO)c1` gave a remaining activity of 96%.
For `CC1(C)CCC2=C(O1)c1ccccc1C(=O)C2=O`, the remaining activity was 78.4%.
The remaining activity of `CCCCc1c(-c2ccc(OC)cc2)[nH]c2nccnc12` is reported as 82.4%.
`O=C1NC(=O)/C(=C\c2ccc(-c3ccc(F)cc3)o2)S1` has a remaining activity of 91.6%.

A few entries again (block 1):
For `C[S+]([O-])CCCC/C(=N\OS(=O)(=O)O)S[C@@H]1O[C@H](CO)[C@@H](O)[C@H](O)[C@H]1O` (some centres unmarked), the inhibition was 5%.
With `CN[C@H]1C(=O)N[C@@H]2Cc3ccc(cc3)Oc3cc4cc(c3O[C@@H]3O[C@H](C(=O)O)[C@@H](O)[C@H](O)[C@H]3NC(=O)CCCCCCCCC(C)C)Oc3ccc(cc3Cl)[C@@H](O)[C@@H]3NC(=O)[C@H](NC(=O)[C@@H]4NC(=O)[C@@H](NC2=O)c2cc(cc(O)c2Cl)Oc2cc1ccc2O)c1ccc(O)c(c1)-c1c(O[C@H]2O[C@H](CO)[C@@H](O)[C@H](O)[C@@H]2O)cc(O)cc1[C@@H](C(=O)NCCCN(C)C)NC3=O` the inhibition was 0%.
